Measurements from different studies.
A part holds a random share of what one study measured. Positions count from the first letter of the parent shown.

Series 1
Target: PABPC1L2, full length, GST fusion (mouse, UniProt A0ABA7IW68)
Technique: RNAcompete
Form: RNA
Medium: in vitro
Tested at: 20 nM
Setting: 7-mer, probes averaged, single round
Reference: mean of 7-mers
Direction: higher = stronger binding
Residues (chain): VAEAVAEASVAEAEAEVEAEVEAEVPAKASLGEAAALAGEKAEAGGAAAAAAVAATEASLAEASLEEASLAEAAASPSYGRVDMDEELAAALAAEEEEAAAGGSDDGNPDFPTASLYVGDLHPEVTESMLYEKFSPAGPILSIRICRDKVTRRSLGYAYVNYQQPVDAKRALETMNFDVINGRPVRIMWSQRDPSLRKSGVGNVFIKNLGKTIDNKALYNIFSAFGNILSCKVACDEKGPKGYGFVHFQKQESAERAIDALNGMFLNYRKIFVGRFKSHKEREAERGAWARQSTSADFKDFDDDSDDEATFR
`CUAACGC` gave a 7-mer Z-score of -0.396.
For `CGGAGCU`, the 7-mer Z-score was -0.00652.
With `ACUUGUA` the 7-mer Z-score was -0.208.
`AAUUCGU` gave a 7-mer Z-score of -0.168.
For `CAAUAGA`, the 7-mer Z-score was 0.189.
`GACUAGG` gave a 7-mer Z-score of -0.0373.
`UCGUACG` gave a 7-mer Z-score of -0.24.
The 7-mer Z-score of `GCACUAA` is reported as 0.0442.
For `AAUUCCA`, the 7-mer Z-score was 0.0587.
The 7-mer Z-score of `UGAUAUU` is reported as -0.199.
The 7-mer Z-score of `UGUUGCU` is reported as -0.452.
`GUCGGCU` has a 7-mer Z-score of -0.291.
With `GCAUUAU` the 7-mer Z-score was -0.117.
`GUUGGCC` has a 7-mer Z-score of -0.324.
`UCGCUCU` has a 7-mer Z-score of -0.38.

Series 2
Target: CCND3, cyclin fold, Cln2 fusion (human)
Technique: yeast growth competition, sequencing
Medium: yeast
Setting: weak parent motif
Reference: not given
Direction: higher = stronger binding
Parent: E2F1 docking peptide (human); PPVKRRLDLETDH; partner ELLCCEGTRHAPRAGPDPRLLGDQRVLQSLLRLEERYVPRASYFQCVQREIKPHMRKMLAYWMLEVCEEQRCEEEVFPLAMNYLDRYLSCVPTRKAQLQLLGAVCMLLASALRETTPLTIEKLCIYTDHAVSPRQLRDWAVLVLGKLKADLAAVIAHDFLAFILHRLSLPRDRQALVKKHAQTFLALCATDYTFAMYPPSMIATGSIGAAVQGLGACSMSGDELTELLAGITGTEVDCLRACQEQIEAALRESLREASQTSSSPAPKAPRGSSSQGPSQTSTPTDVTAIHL
`P1H` — result for “normalised enrichment score”: 0.109.
`D12Q`: “normalised enrichment score” 0.203.
Under “normalised enrichment score”, `L7H` is recorded as 0.0775.
For `P2I`, “normalised enrichment score” read 0.0599.
Under “normalised enrichment score”, `R6P` is recorded as 0.0953.
For `P1C`, “normalised enrichment score” read 0.155.
Under “normalised enrichment score”, `D12T` is recorded as 0.0767.
Under “normalised enrichment score”, `D8F` is recorded as 0.132.
`H13Y`: “normalised enrichment score” 0.0807.
`R6D`: “normalised enrichment score” 0.027.
For `T11N`, “normalised enrichment score” read 0.0681.
`V3I`: “normalised enrichment score” 0.107.
Under “normalised enrichment score”, `T11L` is recorded as 0.152.
`E10H` — result for “normalised enrichment score”: 0.219.

Series 3
Target: ABI1, truncated, D143A, DHFR fusion (Arabidopsis thaliana)
Technique: DHFR PCA, deep sequencing
Medium: yeast
Setting: methotrexate growth selection, single substitutions
Together with: (+)-ABA 1.4 µM
Reference: wild-type fitted maximum
Direction: higher = stronger binding
Parent: PYL1, truncated, DHFR fusion (Arabidopsis thaliana); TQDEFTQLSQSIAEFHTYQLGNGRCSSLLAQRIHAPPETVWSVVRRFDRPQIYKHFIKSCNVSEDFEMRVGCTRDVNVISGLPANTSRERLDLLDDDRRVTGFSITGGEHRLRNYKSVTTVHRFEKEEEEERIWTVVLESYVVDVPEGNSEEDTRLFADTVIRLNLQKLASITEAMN; partner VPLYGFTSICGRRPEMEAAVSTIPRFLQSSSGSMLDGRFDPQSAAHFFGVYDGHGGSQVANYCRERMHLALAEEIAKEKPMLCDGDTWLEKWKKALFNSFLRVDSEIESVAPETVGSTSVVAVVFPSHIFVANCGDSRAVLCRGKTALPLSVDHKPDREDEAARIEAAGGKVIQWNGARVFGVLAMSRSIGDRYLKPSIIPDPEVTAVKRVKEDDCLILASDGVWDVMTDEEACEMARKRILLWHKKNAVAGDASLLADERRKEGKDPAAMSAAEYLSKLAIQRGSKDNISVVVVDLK
Under “relative binding score”, `Q31H` is recorded as 25.7%.
`K58A` — result for “relative binding score”: 46.2%.
For `H16D`, “relative binding score” read 6.14%.
For `I52W`, “relative binding score” read 16.2%.
`T160E`: “relative binding score” -12.3%.
For `V70L`, “relative binding score” read 17.2%.
For `L82V`, “relative binding score” read 20.6%.
Under “relative binding score”, `G102H` is recorded as -8.88%.
Under “relative binding score”, `V118K` is recorded as 21.6%.
`T6K`: “relative binding score” 66.4%.
`K54V`: “relative binding score” -0.396%.
`V78E` — result for “relative binding score”: -5.56%.
For `E129N`, “relative binding score” read 58.7%.

Series 4
Target: Histone acetyltransferase KAT6A, winged helix 2, GST fusion (KAT6A, Homo sapiens, UniProt Q92794, residues 85-181)
Technique: protein binding microarray
Form: double-stranded DNA, one strand shown
Medium: in vitro
Tested at: not given
Setting: 8-mer, flanks averaged, mean of 2 arrays, mostly near background
Reference: not given
Direction: higher = stronger binding
Construct (chain): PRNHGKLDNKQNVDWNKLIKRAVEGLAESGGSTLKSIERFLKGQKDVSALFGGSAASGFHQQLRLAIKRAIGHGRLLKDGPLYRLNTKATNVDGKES
For `ACCTAAGT`, the E-score was -0.102.
With `CGCAGAAC` the E-score was 0.177.
The E-score of `CTACCAGC` is reported as -0.0772.
For `AGAGGACA`, the E-score was -0.0805.
With `GTCACTCA` the E-score was 0.0027.
`GAAAGTGA` gave an E-score of -0.0276.
`GAGCGTGC` gave an E-score of 0.113.
With `CATTAAGC` the E-score was -0.0548.
The E-score of `GTGCGACA` is reported as 0.0904.
With `AAGAAGTA` the E-score was -0.0146.
`CTCTACCA` gave an E-score of -0.0911.
`ATAGGTCG` has an E-score of -0.0892.
For `CCGCCACG`, the E-score was 0.048.
`ATCTTATA` gave an E-score of 0.0784.

Series 5
Target: RNA binding protein fox-1 homolog 2, RRM domain, GST-SBP tag (RBFOX2, Homo sapiens, UniProt O43251-10, residues 100-194)
Technique: RNA Bind-n-Seq
Form: RNA
Medium: in vitro
Tested at: 365 nM
Setting: natural RNA segment, single round, ends assumed
Reference: no-protein control
Direction: higher = stronger binding
Constant ends, left off below: GGGAGUUCUACAGUCCGACGAUC … UGGAAUUCUCGGGUGCCAA
Construct (chain): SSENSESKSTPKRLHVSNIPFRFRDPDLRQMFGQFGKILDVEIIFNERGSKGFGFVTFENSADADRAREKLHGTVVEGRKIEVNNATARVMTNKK
`CCAGGCCUCUAGCCUCCAUGGCUGAUGACCUCAGCUUUCACACUGGUGAAGUCUGUGUACCCAUACUGCAGCCCCAUCCCAUGGGGCCCCUGAAGACCCACUGAGGAAUU` — result for “RBNS enrichment (R)”: 0.281.
`AAUUCUUUCCCUAAAAUGUGUGGAAAAGGCCACAUCAUGAGGACUGGUGUGAGUUGGGGUAGGGUCCCCAGAGUCUCAGGAAAGAAGCUAGAUCACACUGAUUCUCCUGC`: “RBNS enrichment (R)” 0.537.
For `AAUGUUGACUCCAAGGUCCCUAGGAAAUCUCACGAUACACUGGCCGCUGGUUGGUACACUGAUUUCCAGGAAAAGCCCCAGAAGCAGUAGAGGGAGAGCCAUGUACUUGG`, “RBNS enrichment (R)” read 0.305.
Under “RBNS enrichment (R)”, `UAACAAUAUUUUGUAAAAUGAUGCUUCCCCCUUCUCCAUGGUCUAGUCAAUUUUGUACAAUUAGGUAUCUGACUUUACAAGUUUGUUAUCCUUUCUAAUUUUUACUGAAC` is recorded as 0.488.
`CAUGGAUCCAACCCAGGUCACAGGCCUGGGACUUGGUACCCUGGUUGGACACUCCUGAGACUCCAAGUCUGGCUUUCAGUUCAGUUUUCAUCUGUGUUGACAUCGGGGCC` — result for “RBNS enrichment (R)”: 0.217.
`UAGUUUUUUUUUUUACUGAAACUUGUUUUUGUGAAUACUCUGUGCUUAGAAUUAAAUAUCACUUUCUUAUGAACAACAUAACUUCUUCAGAUUGUGUAUAUGAAAACAUU`: “RBNS enrichment (R)” 0.546.
`AGUAAGGGUUGUGGGUUAUACCGGCAUAGAGAAAAGAAGAAAACUAGAAUUGAAACAACUGUGUCUUAGACAUUUGUUUGAAAAAGCUUCAUCAGGCCUUGGAGCAGUCA`: “RBNS enrichment (R)” 0.467.

Series 6
Target: Hepatocyte nuclear factor 3-alpha (Foxa1, Mus musculus, UniProt P35582, residues 1-468, full length assumed)
Technique: EMSA with sequencing
Form: double-stranded DNA, one strand shown
Medium: in vitro
Tested at: 10 and 20 nM
Setting: whole designed probe, mean of two concentrations, ends assumed
Reference: negative control set to 0
Direction: higher = stronger binding
Residues (chain): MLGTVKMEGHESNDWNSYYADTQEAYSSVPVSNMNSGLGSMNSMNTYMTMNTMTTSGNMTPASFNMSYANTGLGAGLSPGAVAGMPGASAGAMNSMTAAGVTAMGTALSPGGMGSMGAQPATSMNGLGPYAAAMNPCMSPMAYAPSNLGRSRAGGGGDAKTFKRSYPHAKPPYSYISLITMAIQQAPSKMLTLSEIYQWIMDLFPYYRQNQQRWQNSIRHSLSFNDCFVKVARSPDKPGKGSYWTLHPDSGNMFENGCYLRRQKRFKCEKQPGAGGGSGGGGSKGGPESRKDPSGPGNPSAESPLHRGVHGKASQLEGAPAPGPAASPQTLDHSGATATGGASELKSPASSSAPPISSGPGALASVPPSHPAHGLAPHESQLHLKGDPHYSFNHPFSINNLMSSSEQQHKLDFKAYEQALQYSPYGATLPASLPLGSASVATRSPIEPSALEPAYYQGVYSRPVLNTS
`GTGAGCGGTGCCCATTGATGGGGAACTTTGTGCTCCTTGCTCCTACTCCCAAAGCCTCAAATCTGCTATGTGGCCTTTCCCAGTTGGCTTCTTTTATTTTCTTAACTTCTCCCTTGTAATGTAATCTTGGGAAAGAGAAAGTGGTAGAAGAACAAAGAATAAGCATACAAAGTAGCTCCACTCCTTCTGCATAGAGCTTTAATAAGGAAATGGTGCCACTTTCACTGGGATCGTGGGGAC`: “normalised bound fraction” 0.0161 ratio.
For `GTGAGCGGTGCCCATTGATGGGGAACGGCTCCAAACGGCTGAATCAGCATTTTCAGAAACAAAGTGTTCTAGGCCTGGCCTTTTAAACAGCAGCAACGAGCAAAAGTTGTGCAATCGCATATTTACTCACGAGCTCTCCTTGTTTTGGTCTTTCCCCCCTCCCCCCCATCTCTTGAATGAAACTGGGCACCAAGTTTGCAAGAAAATATTCTTTCAAACTTTCACTGGGATCGTGGGGAC`, “normalised bound fraction” read 0.12 ratio.
Under “normalised bound fraction”, `GTGAGCGGTGCCCATTGATGGGGAACTCCAGAAGGTCATATAAGTGAAATCACACAGTAGCTAGCCTTTTGAATAAGGTTCCTTTCACTTAGCTTAGTGCATTTGAGATTCATCCACACAGATGACTCATCCATGGTTTGTTCCTTTTTATTGCTGAGTAGTAGTTGATTGTATGGTTGTGCCACCATGCCCATTCATTCACCAGCTGAAGAATACTCGTTTCACTGGGATCGTGGGGAC` is recorded as -0.0621 ratio.
`GTGAGCGGTGCCCATTGATGGGGAACAGCAAGGCTTTAAAAGTGAGGTCTTTCAGTTTAGATGCAAAAAGGGTGGTTCTGTTGAGTCAACCCAGCTATTTCGTTTCGTAATACTACATAGTAAACACCTAGAATGAGGTAGCTGGAGTGCAAATCTAAATGGCTTGTGACAGTTAAGGAAGTACATAGGCAACAGTTACTGGTTTTCTTGATGCAGCTGTTTCACTGGGATCGTGGGGAC`: “normalised bound fraction” -0.0016 ratio.

For quick reference, copied from above (series 3):
For `E129N`, “relative binding score” read 58.7%.
For `L82V`, “relative binding score” read 20.6%.
Under “relative binding score”, `Q31H` is recorded as 25.7%.
`K58A` — result for “relative binding score”: 46.2%.
`V78E` — result for “relative binding score”: -5.56%.
